Measurements from different studies.
Compare with care: the assays were run in different laboratories. Values joined by “and” are separate records of one study, mostly repeats; a detail may differ.
PFF0160c: Dihydroorotate dehydrogenase (quinone), mitochondrial (PFF0160c, Plasmodium falciparum, UniProt Q08210)
PFF0160c E182D: Dihydroorotate dehydrogenase (quinone), mitochondrial (PFF0160c, Plasmodium falciparum, UniProt Q08210, E182D)
gyrA: DNA gyrase subunit A (gyrA, Escherichia coli K-12, UniProt P0AES4)
HLA class I histocompatibility antigen, B alpha chain: HLA class I histocompatibility antigen, B alpha chain (Homo sapiens, UniProt P01889)
Sialidase-3: Sialidase-3 (Homo sapiens, UniProt Q9UQ49)
KCNH2: Voltage-gated inwardly rectifying potassium channel KCNH2 (KCNH2, Homo sapiens, UniProt Q12809)

CCOC(=O)c1[nH]nc(Cc2ccc(C(F)(F)F)cc2)c1C
IC50 (PFF0160c; enzyme activity, inhibitor): > 30 µM

CCN(C)C(=O)Oc1ccc(CCC(=O)N2CCc3ccccc3C2)cc1OC
IC50 (Cholinesterase (BCHE, Equus caballus, UniProt P81908); enzyme activity, inhibitor, Ellman): 6.9 µM

Cc1cn([C@H]2C[C@H](OP(=O)(O)OC[C@H]3O[C@@H](n4cc(C)c(=O)[nH]c4=O)C[C@@H]3O)[C@@H](COP(=O)(O)OP(=O)(O)OP(=O)(O)O)O2)c(=O)[nH]c1=O
IC50 (dgt (Salmonella enterica, UniProt A0A5H6DAK1); enzyme activity, inhibitor): 3.4 µM

O=C(Nc1cccc(CN2CCN(C(=O)c3ccccc3)CC2)c1)c1cccs1
IC50 (PFF0160c E182D; enzyme activity, inhibitor, absorbance): 6.97 µM

CCn1ccc2c([C@@](O)(CC)c3ccc(C(F)(F)F)nc3)n(C)nc2c1=O
IC50 (PFF0160c; enzyme activity, inhibitor): 0.0501 µM

Cn1c(=O)ccc2ccc(F)c(CCNC[C@H]3CN(c4ncc5c(n4)NC(=O)CO5)C(=O)O3)c21
IC50 (gyrA; enzyme activity, inhibitor): 0.041 µM

CC(C)C[C@H](NC(=O)[C@@H](N)CCCCN)C(=O)N[C@@H](Cc1ccccc1)C(=O)N[C@@H](CO)C(=O)N[C@@H](CCCNC(=N)N)C(=O)N1CCC[C@H]1C(=O)N[C@@H](CC(C)C)C(=O)N[C@H](C(=O)N[C@@H](Cc1ccccc1)C(=O)O)[C@@H](C)O
IC50 (HLA class I histocompatibility antigen, B alpha chain; cell-free assay): 17.8 µM

CC(C)Cc1cn([C@H]2[C@H]([C@H](O)[C@H](O)CO)OC(C(=O)O)=C[C@@H]2O)nn1
IC50 (Sialidase-3; enzyme activity, inhibitor): > 500 µM

CC[C@H](C)[C@H](NC(=O)[C@@H]1CCCN1C(=O)[C@H](CCCCN)NC(=O)[C@H](Cc1ccc(O)cc1)NC(=O)[C@H](CCSC)NC(=O)[C@@H](N)CCCNC(=N)N)C(=O)N[C@H](C(=O)N[C@@H](Cc1c[nH]cn1)C(=O)N[C@@H](Cc1ccccc1)C(=O)O)[C@@H](C)O
IC50 (HLA class I histocompatibility antigen, B alpha chain; cell-free assay): 67.7 µM

CCOC(=O)c1ccc(OC(=O)CCCCCN=C(N)N)cc1
IC50 (Kallikrein-5 (Homo sapiens, UniProt Q9Y337); enzyme activity, inhibitor): 8.29 µM

CC[C@](O)(c1cnc(C(F)(F)F)c(Cl)c1)c1c2ccn(C3CC3)c(=O)c2nn1C
IC50 (PFF0160c; enzyme activity, inhibitor): 12.6 µM

Nc1ncc(-c2nc(N3CCOCC3)nc(N3CCOCC3)n2)c(C(F)F)n1
remaining binding (Tyrosine-protein kinase ABL1, phosphorylated (ABL1, Homo sapiens, UniProt P00519, T315I); binding, competition with immobilised ligand; 10 µM): 64%

O=C(O)C1=C[C@H](O)[C@@H](n2cc(-c3ccc(-c4ccccc4)cc3)nn2)[C@H]([C@H](O)[C@H](O)CO)O1
IC50 (Sialidase-4 (Homo sapiens, UniProt Q8WWR8); enzyme activity, inhibitor): 80 µM

CSCC[C@H](NC(=O)[C@H](CO)NC(=O)[C@H](CC(C)C)NC(=O)[C@@H](NC(=O)[C@H](Cc1c[nH]cn1)NC(=O)[C@H](CCCCN)NC(=O)[C@H](Cc1ccccc1)NC(=O)[C@H](CCC(N)=O)NC(=O)[C@@H](N)CCCCN)[C@@H](C)O)C(=O)O
IC50 (HLA class I histocompatibility antigen, B alpha chain; cell-free assay): 68.8 µM

CC(C)C[C@H]1C(=O)N2CCC[C@H]2[C@]2(O)O[C@](NC(=O)[C@@H]3C=C4c5cccc6[nH]c(Br)c(c56)C[C@H]4[N+](C)(C)C3)(C(C)C)C(=O)N12
IC50 (KCNH2; ion current, inhibitor, patch clamp; CHO-KI; pH 7.4): 7.4 µM

O=c1c(O)c(-c2ccc(O[C@@H]3O[C@H](CO)[C@@H](O)[C@H](O)[C@H]3O)c(O)c2)oc2cc(O)cc(O)c12
IC50 (Cholinesterase (BCHE, Equus caballus, UniProt P81908); enzyme activity, inhibitor): 0.00788 µM and 0.00444 µM

COc1ccccc1Cn1ccnc1SCC(=O)Nc1cc(C(F)(F)F)ccc1Cl
IC50 (PFF0160c; enzyme activity, inhibitor, absorbance): 0.0461 µM

Cc1cn([C@H]2[C@H]([C@H](O)[C@H](O)CO)OC(C(=O)O)=C[C@@H]2O)nn1
IC50 (Sialidase-3; enzyme activity, inhibitor): 7.5 µM

[2H]c1c([2H])c([C@]2([2H])CCCN2C(=O)C(C)(C)Oc2ccc3cn[nH]c3c2)c([2H])c([2H])c1C([2H])([2H])[2H]
remaining binding (PIK3C3 (Homo sapiens, UniProt Q8NEB9); binding, competition with immobilised ligand; 1 µM): 95%

CCn1cc(C2CC2)c2c(Cc3cnc(C(F)(F)F)c(C)c3)n(C)nc2c1=O
IC50 (PFF0160c; enzyme activity, inhibitor, absorbance): 0.04 µM

CCN(CC)C(=O)Oc1ccc(CCC(=O)N2CCC(Cc3ccccc3)CC2)cc1OC
IC50 (Cholinesterase (BCHE, Homo sapiens, UniProt P06276); enzyme activity, inhibitor, Ellman): 5.6 µM

Oc1cccc(CCN(CCc2ccccc2)CC2CCC2)c1
IC50 (OPRD1 (Homo sapiens, UniProt P41143); β-arrestin recruitment, antagonist): 8.8 µM

CCN(C)C(=O)Oc1ccc(CCC(=O)N2CCc3ccccc3C2)cc1
IC50 (Cholinesterase (BCHE, Equus caballus, UniProt P81908); enzyme activity, inhibitor, Ellman): 25.3 µM

c1nc2nc3c(c(Nc4ccc5c(c4)CCC5)n2n1)CCC3
IC50 (PFF0160c E182D; enzyme activity, inhibitor, absorbance): > 10 µM

CCCCCC(=O)N[C@H]1[C@H]([C@H](O)[C@H](O)CO)OC(C(=O)O)=C[C@@H]1O
IC50 (Sialidase-3; enzyme activity, inhibitor): > 500 µM

COc1cc(CCC(=O)N2CCC(Cc3ccccc3)CC2)ccc1OC(=O)N(C)C
IC50 (Cholinesterase (BCHE, Homo sapiens, UniProt P06276); enzyme activity, inhibitor, Ellman): 0.95 µM

O=c1cc(NCCCNCc2sc(Br)c(Br)c2Br)[nH]c2ccccc12
IC50 (PFF0160c; enzyme activity, inhibitor, absorbance): 0.591 µM

CC(C)CNC(=O)N[C@H]1[C@H]([C@H](O)[C@H](O)CO)OC(C(=O)O)=C[C@@H]1O
IC50 (Sialidase-3; enzyme activity, inhibitor): 190 µM

CN1C(=O)Cc2ccc(F)c(CCNCC[C@H]3CN(c4ccc5c(n4)NC(=O)CO5)C(=O)O3)c21
IC50 (KCNH2; ion current, inhibitor, patch clamp; 2 min, pH 7.4): 10 µM

CCn1ccc2c([C@](C)(O)c3cnc(C(F)(F)F)c(Cl)c3)n(C)nc2c1=O
IC50 (PFF0160c; enzyme activity, inhibitor): 0.0501 µM

CC(C)(C)c1cn([C@H]2[C@H]([C@H](O)[C@H](O)CO)OC(C(=O)O)=C[C@@H]2O)nn1
IC50 (Sialidase-3; enzyme activity, inhibitor): 190 µM

Cc1noc(-c2cccs2)c1C(=O)NCCc1cccc(Cl)c1
IC50 (PFF0160c E182D; enzyme activity, inhibitor, absorbance): 4.12 µM

Cn1nc2c(=O)n(C3CC3)nc(C3CC3)c2c1Cc1ccc(C(F)(F)F)c(F)c1
IC50 (PFF0160c; enzyme activity, inhibitor): 0.048 µM

CC[C@H](C)[C@H](NC(=O)[C@H](Cc1c[nH]cn1)NC(=O)CNC(=O)[C@H](Cc1ccccc1)NC(=O)[C@H](CC(C)C)NC(=O)[C@@H](N)CCCNC(=N)N)C(=O)N[C@H](C(=O)N[C@@H](CCC(=O)O)C(=O)N[C@@H](Cc1ccc(O)cc1)C(=O)O)[C@@H](C)O
IC50 (HLA class I histocompatibility antigen, B alpha chain; cell-free assay): 54.4 µM

Cc1cc(Nc2ccc(C)c(C)c2)n2nc(C)nc2n1
IC50 (PFF0160c E182D; enzyme activity, inhibitor, absorbance): > 10 µM

Cn1c(=O)cnc2ccc(F)c(CCNC[C@H]3CN(c4cnc5c(n4)NC(=O)CO5)C(=O)O3)c21
IC50 (gyrA; enzyme activity, inhibitor): 0.011 µM

O=C(CSc1nccn1C1CCCCC1)Nc1cc(C(F)(F)F)ccc1Cl
IC50 (PFF0160c; enzyme activity, inhibitor, absorbance): 0.29 µM

CC(C)C[C@H](NC(=O)[C@@H](N)Cc1c[nH]cn1)C(=O)N[C@@H](Cc1ccccc1)C(=O)N1CCC[C@H]1C(=O)N[C@@H](CCCNC(=N)N)C(=O)N[C@H](C(=O)N[C@@H](Cc1c[nH]cn1)C(=O)N[C@@H](Cc1ccc(O)cc1)C(=O)N[C@@H](Cc1ccccc1)C(=O)O)[C@@H](C)O
IC50 (HLA class I histocompatibility antigen, B alpha chain; cell-free assay): 47.4 µM

CCn1ccc2c([C@@](O)(CC)c3cnc(C(F)(F)F)c(Cl)c3)n(C)nc2c1=O
IC50 (PFF0160c; enzyme activity, inhibitor): 0.0251 µM

CC(=O)c1c(C)c2cnc(Nc3ccc(C4CCN(CCS(C)(=O)=O)CC4)cn3)nc2n(C2CCCC2)c1=O
IC50 (Cytochrome P450 2D6 (CYP2D6, Homo sapiens, UniProt P10635); enzyme activity, inhibitor; human, liver microsomes): > 10 µM

COc1cc(CCC(=O)N2CCC(Cc3ccccc3)CC2)ccc1OC(=O)N1CCOCC1
IC50 (Cholinesterase (BCHE, Equus caballus, UniProt P81908); enzyme activity, inhibitor, Ellman): 4.6 µM

CCn1cc(C2CC2)c2c(Cc3ccc(C(F)(F)F)c(C#N)c3)n(C)nc2c1=O
IC50 (PFF0160c; enzyme activity, inhibitor): 0.0158 µM

COc1cc(Nc2ccnc3cc(-c4ccncc4)ccc23)cc(OC)c1OC
IC50 (PFF0160c; enzyme activity, inhibitor, absorbance): 1.91 µM

A few entries again:
CC[C@](O)(c1cnc(C(F)(F)F)c(Cl)c1)c1c2ccn(C3CC3)c(=O)c2nn1C
IC50 (PFF0160c; enzyme activity, inhibitor): 12.6 µM

CCOC(=O)c1[nH]nc(Cc2ccc(C(F)(F)F)cc2)c1C
IC50 (PFF0160c; enzyme activity, inhibitor): > 30 µM

Cn1nc2c(=O)n(C3CC3)nc(C3CC3)c2c1Cc1ccc(C(F)(F)F)c(F)c1
IC50 (PFF0160c; enzyme activity, inhibitor): 0.048 µM

CC(C)C[C@H](NC(=O)[C@@H](N)CCCCN)C(=O)N[C@@H](Cc1ccccc1)C(=O)N[C@@H](CO)C(=O)N[C@@H](CCCNC(=N)N)C(=O)N1CCC[C@H]1C(=O)N[C@@H](CC(C)C)C(=O)N[C@H](C(=O)N[C@@H](Cc1ccccc1)C(=O)O)[C@@H](C)O
IC50 (HLA class I histocompatibility antigen, B alpha chain; cell-free assay): 17.8 µM

Oc1cccc(CCN(CCc2ccccc2)CC2CCC2)c1
IC50 (OPRD1 (Homo sapiens, UniProt P41143); β-arrestin recruitment, antagonist): 8.8 µM

Cn1c(=O)ccc2ccc(F)c(CCNC[C@H]3CN(c4ncc5c(n4)NC(=O)CO5)C(=O)O3)c21
IC50 (gyrA; enzyme activity, inhibitor): 0.041 µM
